# Experimental data pooled from the literature.
# Chains of the proteins cited; added tags and fusions are not shown. Residues count along the entry.
# UniProt Q12809, whole entry: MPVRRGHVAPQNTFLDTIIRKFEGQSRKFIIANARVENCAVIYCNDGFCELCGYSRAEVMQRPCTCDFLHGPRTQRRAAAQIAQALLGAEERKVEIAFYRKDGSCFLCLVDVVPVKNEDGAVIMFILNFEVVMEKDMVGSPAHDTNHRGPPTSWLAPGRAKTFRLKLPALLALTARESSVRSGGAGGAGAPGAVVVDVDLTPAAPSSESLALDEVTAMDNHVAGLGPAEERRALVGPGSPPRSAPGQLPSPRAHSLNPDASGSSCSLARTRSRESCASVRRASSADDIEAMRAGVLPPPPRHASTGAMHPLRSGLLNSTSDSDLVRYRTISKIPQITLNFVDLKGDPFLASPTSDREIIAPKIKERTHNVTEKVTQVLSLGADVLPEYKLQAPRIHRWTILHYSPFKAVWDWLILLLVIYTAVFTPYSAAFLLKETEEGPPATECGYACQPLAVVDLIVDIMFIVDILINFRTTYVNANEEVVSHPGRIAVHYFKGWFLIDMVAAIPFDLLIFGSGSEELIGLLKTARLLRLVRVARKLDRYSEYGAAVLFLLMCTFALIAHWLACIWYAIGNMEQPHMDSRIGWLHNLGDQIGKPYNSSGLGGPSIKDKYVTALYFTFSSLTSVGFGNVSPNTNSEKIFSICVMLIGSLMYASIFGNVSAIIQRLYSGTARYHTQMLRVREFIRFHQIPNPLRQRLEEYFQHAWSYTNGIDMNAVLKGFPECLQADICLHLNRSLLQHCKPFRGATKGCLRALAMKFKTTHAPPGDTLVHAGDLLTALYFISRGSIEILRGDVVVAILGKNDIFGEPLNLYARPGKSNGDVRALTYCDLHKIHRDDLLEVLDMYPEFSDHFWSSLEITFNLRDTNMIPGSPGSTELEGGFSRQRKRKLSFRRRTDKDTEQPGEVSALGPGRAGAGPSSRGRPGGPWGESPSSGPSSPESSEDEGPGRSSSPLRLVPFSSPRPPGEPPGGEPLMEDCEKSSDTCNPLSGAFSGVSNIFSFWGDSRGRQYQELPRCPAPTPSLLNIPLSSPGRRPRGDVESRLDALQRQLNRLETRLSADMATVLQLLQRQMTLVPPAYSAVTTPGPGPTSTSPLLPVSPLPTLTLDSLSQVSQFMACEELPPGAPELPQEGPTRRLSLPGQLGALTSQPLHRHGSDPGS
# UniProt P08684, whole entry: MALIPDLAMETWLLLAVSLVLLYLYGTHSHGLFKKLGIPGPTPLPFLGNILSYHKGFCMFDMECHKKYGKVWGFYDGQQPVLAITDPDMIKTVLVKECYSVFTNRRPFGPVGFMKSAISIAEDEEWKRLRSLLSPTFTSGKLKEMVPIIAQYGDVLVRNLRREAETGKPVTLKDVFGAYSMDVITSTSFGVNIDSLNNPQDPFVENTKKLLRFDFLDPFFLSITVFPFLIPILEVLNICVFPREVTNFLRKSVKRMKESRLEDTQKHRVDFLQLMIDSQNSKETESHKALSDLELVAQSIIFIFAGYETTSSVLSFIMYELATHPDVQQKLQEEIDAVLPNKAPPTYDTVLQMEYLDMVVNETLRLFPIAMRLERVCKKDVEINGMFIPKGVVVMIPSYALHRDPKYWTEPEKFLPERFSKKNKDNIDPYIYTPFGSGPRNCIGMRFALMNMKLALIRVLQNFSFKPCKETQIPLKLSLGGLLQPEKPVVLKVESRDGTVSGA
# UniProt P11712, whole entry: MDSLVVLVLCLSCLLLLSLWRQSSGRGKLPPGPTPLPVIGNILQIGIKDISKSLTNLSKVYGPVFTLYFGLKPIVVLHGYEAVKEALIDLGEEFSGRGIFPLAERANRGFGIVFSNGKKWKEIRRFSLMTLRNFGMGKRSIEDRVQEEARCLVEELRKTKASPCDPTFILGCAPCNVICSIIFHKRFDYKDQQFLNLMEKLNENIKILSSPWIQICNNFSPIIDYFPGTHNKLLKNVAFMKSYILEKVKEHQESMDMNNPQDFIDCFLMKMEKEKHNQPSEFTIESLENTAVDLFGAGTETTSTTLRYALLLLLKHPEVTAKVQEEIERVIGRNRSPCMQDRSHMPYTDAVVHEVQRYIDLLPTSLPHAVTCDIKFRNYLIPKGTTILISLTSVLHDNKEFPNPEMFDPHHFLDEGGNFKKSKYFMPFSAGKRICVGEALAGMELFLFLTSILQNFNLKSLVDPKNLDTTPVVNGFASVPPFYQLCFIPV
# UniProt P35353, 24-415 limits assumed: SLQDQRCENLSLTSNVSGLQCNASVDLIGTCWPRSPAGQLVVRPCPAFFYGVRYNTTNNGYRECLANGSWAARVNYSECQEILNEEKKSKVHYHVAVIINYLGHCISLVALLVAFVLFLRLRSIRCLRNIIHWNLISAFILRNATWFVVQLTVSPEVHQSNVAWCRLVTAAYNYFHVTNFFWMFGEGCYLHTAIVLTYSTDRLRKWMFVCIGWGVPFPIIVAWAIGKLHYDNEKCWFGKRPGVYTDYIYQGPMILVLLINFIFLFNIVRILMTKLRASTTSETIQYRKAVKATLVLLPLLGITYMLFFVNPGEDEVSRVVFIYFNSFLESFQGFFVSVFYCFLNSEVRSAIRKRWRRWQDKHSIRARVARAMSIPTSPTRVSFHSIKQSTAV
# UniProt P35869, whole entry, looked up: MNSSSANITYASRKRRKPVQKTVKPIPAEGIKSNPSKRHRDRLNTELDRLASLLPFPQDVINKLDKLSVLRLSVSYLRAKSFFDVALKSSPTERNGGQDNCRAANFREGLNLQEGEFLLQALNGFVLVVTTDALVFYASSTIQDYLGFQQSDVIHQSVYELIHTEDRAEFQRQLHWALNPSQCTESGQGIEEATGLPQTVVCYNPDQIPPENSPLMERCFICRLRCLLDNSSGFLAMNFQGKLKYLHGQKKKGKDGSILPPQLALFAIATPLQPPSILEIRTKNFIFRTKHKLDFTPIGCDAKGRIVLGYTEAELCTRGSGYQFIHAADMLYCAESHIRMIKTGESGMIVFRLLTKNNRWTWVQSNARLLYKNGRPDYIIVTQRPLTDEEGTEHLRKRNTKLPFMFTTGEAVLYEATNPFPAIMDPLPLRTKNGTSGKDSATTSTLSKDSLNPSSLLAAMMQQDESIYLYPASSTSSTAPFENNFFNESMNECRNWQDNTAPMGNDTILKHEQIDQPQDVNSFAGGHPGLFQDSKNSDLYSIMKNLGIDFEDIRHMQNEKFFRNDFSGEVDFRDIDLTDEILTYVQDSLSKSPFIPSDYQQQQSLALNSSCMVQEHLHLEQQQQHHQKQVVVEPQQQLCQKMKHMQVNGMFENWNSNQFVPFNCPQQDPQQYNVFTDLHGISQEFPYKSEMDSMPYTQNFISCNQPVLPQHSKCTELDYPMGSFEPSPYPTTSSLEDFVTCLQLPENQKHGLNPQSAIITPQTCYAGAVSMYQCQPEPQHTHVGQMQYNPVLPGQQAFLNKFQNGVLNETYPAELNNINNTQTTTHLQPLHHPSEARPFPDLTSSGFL
# UniProt P21447, whole entry N83Q/N87Q/N90Q: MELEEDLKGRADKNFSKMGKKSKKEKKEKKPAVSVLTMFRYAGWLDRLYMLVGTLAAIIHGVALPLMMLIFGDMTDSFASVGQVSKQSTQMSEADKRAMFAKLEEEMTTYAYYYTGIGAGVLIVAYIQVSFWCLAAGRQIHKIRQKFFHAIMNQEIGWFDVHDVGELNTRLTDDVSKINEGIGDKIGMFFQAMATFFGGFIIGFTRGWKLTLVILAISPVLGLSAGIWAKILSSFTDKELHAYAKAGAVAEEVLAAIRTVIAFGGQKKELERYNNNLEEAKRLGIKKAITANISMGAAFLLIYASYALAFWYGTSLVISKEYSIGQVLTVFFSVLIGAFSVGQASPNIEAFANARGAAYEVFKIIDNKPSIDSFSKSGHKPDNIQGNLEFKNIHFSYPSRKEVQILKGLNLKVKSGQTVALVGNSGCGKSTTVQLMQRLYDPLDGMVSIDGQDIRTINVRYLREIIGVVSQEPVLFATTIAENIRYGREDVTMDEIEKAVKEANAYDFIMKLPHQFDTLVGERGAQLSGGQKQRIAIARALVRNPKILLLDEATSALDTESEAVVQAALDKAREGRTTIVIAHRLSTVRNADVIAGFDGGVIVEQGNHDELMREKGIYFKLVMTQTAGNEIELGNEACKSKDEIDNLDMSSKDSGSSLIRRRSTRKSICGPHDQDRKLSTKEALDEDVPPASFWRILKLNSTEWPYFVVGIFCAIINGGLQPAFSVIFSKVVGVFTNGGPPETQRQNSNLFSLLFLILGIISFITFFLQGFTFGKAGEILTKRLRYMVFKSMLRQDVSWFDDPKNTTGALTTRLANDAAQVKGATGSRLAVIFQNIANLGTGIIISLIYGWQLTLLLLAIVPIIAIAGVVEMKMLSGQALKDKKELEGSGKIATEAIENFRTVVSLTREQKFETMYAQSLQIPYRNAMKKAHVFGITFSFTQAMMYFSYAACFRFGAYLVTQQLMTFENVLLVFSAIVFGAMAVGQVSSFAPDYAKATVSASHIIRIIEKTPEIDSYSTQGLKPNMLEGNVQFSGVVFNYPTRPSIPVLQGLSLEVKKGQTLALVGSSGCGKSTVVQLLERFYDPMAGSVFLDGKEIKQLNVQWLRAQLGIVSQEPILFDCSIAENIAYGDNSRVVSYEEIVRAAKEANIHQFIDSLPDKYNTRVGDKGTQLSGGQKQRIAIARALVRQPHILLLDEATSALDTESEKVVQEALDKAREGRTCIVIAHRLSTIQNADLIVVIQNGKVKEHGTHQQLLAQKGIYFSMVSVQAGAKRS
# UniProt P30561, 10-848 limits assumed: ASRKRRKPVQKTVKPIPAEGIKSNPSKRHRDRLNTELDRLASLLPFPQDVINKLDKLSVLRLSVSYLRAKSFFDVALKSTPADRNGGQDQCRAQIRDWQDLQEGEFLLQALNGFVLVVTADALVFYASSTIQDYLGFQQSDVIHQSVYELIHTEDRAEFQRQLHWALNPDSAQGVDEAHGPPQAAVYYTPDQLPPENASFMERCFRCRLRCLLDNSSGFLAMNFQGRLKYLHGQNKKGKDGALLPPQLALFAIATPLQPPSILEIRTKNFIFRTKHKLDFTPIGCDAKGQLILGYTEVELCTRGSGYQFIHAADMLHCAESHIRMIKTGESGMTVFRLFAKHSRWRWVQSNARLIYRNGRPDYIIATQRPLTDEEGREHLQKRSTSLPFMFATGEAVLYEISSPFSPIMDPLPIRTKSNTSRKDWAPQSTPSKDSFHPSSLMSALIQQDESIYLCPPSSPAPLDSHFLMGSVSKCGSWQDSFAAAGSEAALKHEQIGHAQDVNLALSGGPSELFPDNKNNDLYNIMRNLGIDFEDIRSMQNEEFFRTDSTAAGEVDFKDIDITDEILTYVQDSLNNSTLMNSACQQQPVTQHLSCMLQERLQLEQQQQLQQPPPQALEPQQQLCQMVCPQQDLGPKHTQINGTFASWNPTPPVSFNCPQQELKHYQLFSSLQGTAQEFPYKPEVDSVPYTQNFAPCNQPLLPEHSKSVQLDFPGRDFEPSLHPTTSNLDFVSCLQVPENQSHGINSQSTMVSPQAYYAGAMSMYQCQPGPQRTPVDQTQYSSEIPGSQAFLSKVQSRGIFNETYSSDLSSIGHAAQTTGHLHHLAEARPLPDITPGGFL
# Each line is one published result; not all experiments were run side by side.
# KCNH2: Voltage-gated inwardly rectifying potassium channel KCNH2 (KCNH2, Homo sapiens, UniProt Q12809)
SMILES,tested on,test,system,setting,quantity,result
CC=C(C)C(=O)OCCCc1cc2c(c(OC)c1OC)OCO2,"Cytochrome P450 3A4 (CYP3A4, Homo sapiens, UniProt P08684)","enzyme activity, inhibitor, fluorescence",,together with: dibenzyl fluorescein substrate,IC50,1600 nM
CCOc1ccc2cc(-c3nn(CC4(O)CN(C)C4)c4ncnc(N)c34)ccc2c1,KCNH2,"ion transport, inhibitor, thallium flux",,,EC50,11000 nM
COc1ccc(S(=O)(=O)N2CCCN(CC(=O)Nc3ccccc3OC)CC2)cc1,"Cytochrome P450 2C9 (CYP2C9, Homo sapiens, UniProt P11712)","enzyme activity, inhibitor",,,IC50,2000 nM
Cc1ccccc1S(=O)(=O)Nc1cccc(C(=O)NC2CCN(c3ncnc4[nH]cnc34)CC2)c1,A549-ACE2,,,66.67 µM,viability,90.4%
CCOc1ccc2cc(-c3nn(CC4CCNCC4)c4ncnc(N)c34)ccc2n1,KCNH2,"ion transport, inhibitor, thallium flux",,,EC50,10000 nM
COc1cccc2c(N3CCC(CCP(=O)(O)O)CC3)ncnc12,KCNH2,,,25 µM,hERG inhibition,no inhibition
COCCN(CCOC)c1nc(C)nc2c(-c3c(OC)cc([76Br])cc3OC)c(C)nn12,"Corticotropin-releasing factor receptor 1 (Rattus norvegicus, UniProt P35353)",,"rat, frontal cortex","intravenous, 60 min",tissue uptake,0.127 %ID/g
COc1cccc(C(=O)c2n[nH]c3ccccc23)c1,"AHR (Homo sapiens, UniProt P35869)","reporter gene, agonist",HepG2 transfected XRE-luciferase,4.5 h,EC50,2760 nM
Clc1cccc(-c2c(Cl)c(Cl)cc(Cl)c2Cl)c1Cl,"Abcb1a (Mus musculus, UniProt P21447, N83Q/N87Q/N90Q)","verapamil-stimulated ATPase activity, inhibitor",purified protein,together with: verapamil 100 µM,IC50,12500 nM
Cc1nc2c[nH]c(/C=C/C=C/c3ccc(N(C)C)cc3)cn-2c1=O,PA-E2 fibrils,,,concentration not given,chemiluminescence signal half-life,42 min
CC1(C)CC[C@]2(C(=O)O)CC[C@]3(C)C(=CC[C@@H]4[C@@]5(C)CC[C@H](OC(=O)NCc6ccccc6)C(C)(C)[C@@H]5CC[C@]43C)[C@@H]2C1,,,"C57BL/6 mice, plasma","intraperitoneal, 85 µmol/kg",Tmax,60 min
CC(C)C[C@@H](NC(=O)[C@H](NC(=O)[C@H]1CCCN1)[C@H](C)O)C(=O)N[C@H](Cc1c[nH]cn1)C(=O)N[C@@H](C(=O)N[C@H](Cc1c[nH]cn1)C(=O)N[C@H](CC(N)=O)C(=O)N[C@H](CCCNC(=N)N)C(=O)N[C@H](CCCNC(=N)N)C(=O)N[C@H](CCCNC(=N)N)C(=O)N[C@H](CCCNC(=N)N)C(=O)N[C@H](CCCNC(=N)N)C(N)=O)[C@H](C)O,,,"healthy human, fasted, plasma","oral, dose not given",earliest Tmax,30 min
O=c1c(-c2c[nH]c3ccccc23)nccc2c1[nH]c1ccccc12,"Ahr (Mus musculus, UniProt P30561)","reporter gene, activator",mouse H1L7.5c3,6 h,EC50,7.1 nM
"[11CH3]Nc1ccc(C(=O)C2CCN(C3Cc4ccccc4CC3O)CC2)cc1 (single isomer, unassigned)",,microPET,"cynomolgus monkey, male, brain",dose not given,time to peak radioactivity,10 min
NCCNCCSc1ccccc1,,spectrophotometry,,pH 5.4,pKa,5.63

# For quick reference, copied from above:
SMILES,tested on,test,system,setting,quantity,result
COCCN(CCOC)c1nc(C)nc2c(-c3c(OC)cc([76Br])cc3OC)c(C)nn12,"Corticotropin-releasing factor receptor 1 (Rattus norvegicus, UniProt P35353)",,"rat, frontal cortex","intravenous, 60 min",tissue uptake,0.127 %ID/g
